Measured values pooled from the literature.
A part holds a random share of what one study measured. Changes are numbered by the printed parent chain.

Set 1
Target: CCNE1, cyclin fold, Cln2 fusion (human)
Method: yeast growth competition, sequencing
Medium: yeast
Notes: strong parent motif
Baseline: not given
Direction: higher = stronger binding
Starting sequence: PKMYT1 docking peptide (human); SFEPRNLLSLFED
`N6L` — result for “normalised enrichment score”: 0.924.
Under “normalised enrichment score”, `E3I` is recorded as 1.68.
`E3H` — result for “normalised enrichment score”: 2.19.
`L7V`: “normalised enrichment score” 0.872.
Under “normalised enrichment score”, `E12G` is recorded as 1.65.
Under “normalised enrichment score”, `E12D` is recorded as 2.02.
`L10Y` — result for “normalised enrichment score”: 2.08.
For `E3T`, “normalised enrichment score” read 2.19.
`L7C`: “normalised enrichment score” 0.599.
`P4H`: “normalised enrichment score” -0.18.
For `N6D`, “normalised enrichment score” read 1.36.
`L10G`: “normalised enrichment score” 1.2.
For `D13G`, “normalised enrichment score” read 1.52.
`S9G`: “normalised enrichment score” 1.47.
Under “normalised enrichment score”, `E12V` is recorded as 2.34.
`P4L`: “normalised enrichment score” 0.869.
Under “normalised enrichment score”, `L8Y` is recorded as 0.736.
Under “normalised enrichment score”, `R5G` is recorded as 1.26.
`R5A`: “normalised enrichment score” 1.19.
`F2W` — result for “normalised enrichment score”: 1.37.
`E12N`: “normalised enrichment score” 2.25.
`E12A` — result for “normalised enrichment score”: 1.74.
`S1V` — result for “normalised enrichment score”: 2.27.
`S1Y`: “normalised enrichment score” 1.01.
For `L10I`, “normalised enrichment score” read 1.22.

Set 2
Target: RNA binding protein fox-1 homolog 2, RRM domain, GST-SBP tag (RBFOX2, Homo sapiens, UniProt O43251-10, residues 100-194)
Method: RNA Bind-n-Seq
Molecule type: RNA
Medium: in vitro
Tested at: 365 nM
Notes: natural RNA segment, single round, ends assumed
Baseline: no-protein control
Direction: higher = stronger binding
Constant ends, left off below: GGGAGUUCUACAGUCCGACGAUC … UGGAAUUCUCGGGUGCCAA
Target sequence (chain): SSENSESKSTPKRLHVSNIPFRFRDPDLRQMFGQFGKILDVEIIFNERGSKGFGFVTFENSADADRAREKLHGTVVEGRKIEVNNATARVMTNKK
`UGACCACACAGCCUCUGCCUCACGCCUGCUUGGUACACUAAGGGCCAGCCCUGCAGGGGCUGUACCCAGCUUGGCCUUAGCCCAUCUAAGUGCUGUCAACUGGUCUCCCA`: “RBNS enrichment (R)” 0.435.
Under “RBNS enrichment (R)”, `UAAAUGUGGUCUUUGCCAACUAAAUUUAAGAUGCAGCAUUUUAGAAAUUUACAUAUCAAUGUUUCUACAGUAUUGUUUGCUAAUUUUUAAAUAAAGUCAUGAUCAGUGUG` is recorded as 0.879.
For `AAGAGCUUCUUUGAGGCCAAGAAGCUGGUGUAGGGGUCUCGCCCUAUAACCUUCCCCUUUUACCUCAAUUAUUUGAUAAUUUCCCCACCCAGCCCCUCAUCCACCUGGAA`, “RBNS enrichment (R)” read 0.503.
Under “RBNS enrichment (R)”, `CAAAAUUCUUUAUUUCAGAAUGCAACAAUAGAUUCCAUUAAUAUAGACUCAAGAUCAAAACAGCAUACCUGCUAAGCUAAGAUAGAUGGUGUUGAUUCCACUGGGUUUUG` is recorded as 0.447.
For `CCCCAAUUAAAUGUUGUCCUUAUAAGAGUUGCCUUGGUCACGGUGUCUGUUCACAGCAGUAAAAACUUAACUAAGACACAUACUGCUCUGAAAAUAAAAUAACUUUCUAU`, “RBNS enrichment (R)” read 0.505.
`AGAUGUUCUAAGUCUUUCCAUUGGAUCUCAUUGGACCCUUCCAUGGUGUGAUCGUCUGACUGGUGUUAUCACCGUGGGCUCCCUGACUGGGAGUUGAUCGCCUUUCCCAG` — result for “RBNS enrichment (R)”: 0.395.
`UAGAUCUCCUGGGCCGGGCGUUCCAAACAGUUGUGAGCUACUGUGUGAGUGCUAGGAGCAAACCUGGAUCCUCUGCAAGAGCAACGAAUACUGGUAACCCCUGAACCAUU`: “RBNS enrichment (R)” 1.06.
`CUCACGGAUUAGGAAUUAACAGCCAAAGGCUCCCACGGAAGGGACCAGAAGGGGCUGAGCCCCACCCUGGAGUGGGCUUGCACCUGGUAGGUGUGCAAGAAGCCAUUUCC` — result for “RBNS enrichment (R)”: 0.315.
`CCUCCUAUUUCUGGCAUCAGAACUUUGCCAUUUGUCUACAGAAGACGAACCAGAGACAAAAUUACUAAGUAUAAAUUAGUCAAGUUUAUCAGUCUAAAAAACGAAGGGAU` — result for “RBNS enrichment (R)”: 0.406.
For `GGAAGAUUGUUCUGACCGUCACAAAUUGUAGUGCCUGAAAACACUUAACACUGAUUGUCUAAGAGAUGAAAGUCCUCCAAAGAUGACACAGGAAAAAUACUACAAGUAAU`, “RBNS enrichment (R)” read 0.185.
`CAGUUUUAUAAGUGAAAAUUUUAUUUUAAAAAACAGUGGUUUUUUUUUUUGGGUAUGUCUGGAUCAUUCAGACAGUACAUUUGAAUUCCGCUGAAUGUAGAUAAAUAAAA` — result for “RBNS enrichment (R)”: 1.18.
`GGUGCUGUGACUCCUGCUGCUGGGGAUUUAUGUCCCGAGACCUUAGCCUGGCUGAGUGGAGCCUGAGACCUGCACAACAGCUCAUGGUCAUGCAUGAGAGAGAAGUGGCU`: “RBNS enrichment (R)” 0.398.

Set 3
Target: UBE2E1 UBC core domain (UniProt P51965)
Chain of UniProt P51965 (whole entry, looked up): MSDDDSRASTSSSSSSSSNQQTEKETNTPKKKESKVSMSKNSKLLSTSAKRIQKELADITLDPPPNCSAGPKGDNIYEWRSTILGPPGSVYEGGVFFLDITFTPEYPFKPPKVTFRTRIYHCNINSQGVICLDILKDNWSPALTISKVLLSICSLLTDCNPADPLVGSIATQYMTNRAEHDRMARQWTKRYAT
Method: yeast two-hybrid
Medium: yeast
Notes: mostly zero background
Baseline: not given
Direction: higher = stronger interaction
B1: SYTL4 RING domain (UniProt Q96C24); chain RGSQHYSDRTCARCQESLGRLSPKTNTCRGCNHLVCRDCRIQESNGTWRCKVCAKEIELKKAT
B2: MDM4 RING domain (UniProt O15151); chain MEDCQNLLKPCSLCEKRPRDGNIIHGRTGHLVTCFHCARRLKKAGASCPICKKEIQLVIKVF
B3: DZIP3 RING domain (UniProt Q86Y13); chain PDEEEEEEEPCVICHENLSPENLSVLPCAHKFHAQCIRPWLMQQGTCPTCRLHVLLPEEFP
B4: ZMIZ2 RING domain (UniProt Q8NF64); chain GTIPGTPGPNGEDGVEQTAIKVSLKCPITFRRIQLPARGHDCRHIQCFDLESYLQLNCERGTWRCPVCNKTALLEGLEVDQYMLGILIYIQNSDYEEITIDPTCSWK
B5: SH3RF1 RING domain (UniProt Q7Z6J0); chain DESALLDLLECPVCLERLDASAKVLPCQHTFCKRCLLGIVGSRNELRCPECRTLVGSGVEEL
B6: UBOX5 RING domain (UniProt O94941); chain EQPGSILGPECASCKRVFSPYFKKEPVYQLPCGHLLCRPCLGEKQRSLPMTCTACQRPVASQDVLR
B7: MAP3K1 RING domain (UniProt Q13233); chain NSIKDEEEQMCPICLLGMLDEESLTVCEDGCRNKLHHHCMSIWAEECRRNREPLICPLCRSKWRSHDFYS
B8: TRIM62 RING domain (UniProt Q9BVG3); chain MACSLKDELLCSICLSIYQDPVSLGCEHYFCRRCITEHWVRQEAQGARDCPECRRTFAEPALAP
B9: DTX2 RING domain (UniProt Q86UW9); chain EELKVPPDEDCIICMEKLSTASGYSDVTDSKAIGSLAVGHLTKCSHAFHLLCLLAMYCNGNKDGSLQCPSCKTIYGEKTGTQ
B10: RNF19A RING domain (UniProt Q9NV58); chain ISKQIGDFIECPLCLLRHSKDRFPDIMTCHHRSCVDCLRQYLRIEISESRVNISCPECTERFNPHDIR
B11: RFWD3 RING domain (UniProt Q6PCD5); chain ASMDEEEGDTCTICLEQWTNAGDHRLSALRCGHLFGYRCISTWLKGQVRKCPQCNKKARHSDIVV
`B1 (SYTL4 RING domain)` — result for “lacZ reporter activity”: 0.
For `YQNEVDDDLVCHICLQPLLQPLDTPCGHTFCYKCLRNFLQEKDFCPLDRKRLHFKLCKK (LNX2 RING domain (UniProt Q8N448))`, “lacZ reporter activity” read 0.
For `NLSELTPYILCSICKGYLIDATTITECLHTFCKSCIVRHFYYSNRCPKCNIVVHQTQPLY (PCGF6 RING domain (UniProt Q9BYE7))`, “lacZ reporter activity” read 0.
`PEDRESLKSACVVCLSSFKSCVFLECGHVCSCTECYRALPEPKKCPICRQAITRVIPLY (MUL1 RING domain (UniProt Q969V5))` — result for “lacZ reporter activity”: 12000.
`KLRKLKEAMLCMVCCEEEINSTFCPCGHTVCCESCAAQLQSCPVCRSRVEHVQHVY (MYLIP RING domain (UniProt Q8WY64))` — result for “lacZ reporter activity”: 0.
Under “lacZ reporter activity”, `B2 (MDM4 RING domain)` is recorded as 0.
Under “lacZ reporter activity”, `B3 (DZIP3 RING domain)` is recorded as 0.
For `B4 (ZMIZ2 RING domain)`, “lacZ reporter activity” read 0.
Under “lacZ reporter activity”, `B5 (SH3RF1 RING domain)` is recorded as 0.
Under “lacZ reporter activity”, `B6 (UBOX5 RING domain)` is recorded as 0.
For `B7 (MAP3K1 RING domain)`, “lacZ reporter activity” read 11900.
Under “lacZ reporter activity”, `B8 (TRIM62 RING domain)` is recorded as 0.
For `B9 (DTX2 RING domain)`, “lacZ reporter activity” read 0.
For `B10 (RNF19A RING domain)`, “lacZ reporter activity” read 0.
`AMYLQENGIDCPKCKFSYALARGGCMHFHCTQCRHQFCSGCYNAFYAKNKC (RNF31 RING domain (UniProt Q96EP0))`: “lacZ reporter activity” 0.
`B11 (RFWD3 RING domain)` — result for “lacZ reporter activity”: 0.

Set 4
Target: ABI1, truncated, D143A, DHFR fusion (Arabidopsis thaliana, UniProt P49597)
Method: DHFR PCA, dose-response
Medium: yeast
Notes: Hill fit, mean, not affinity
With: (+)-ABA, dose series
Direction: lower = more sensitive
Starting sequence: PYL1, truncated, DHFR fusion (Arabidopsis thaliana, UniProt Q8VZS8); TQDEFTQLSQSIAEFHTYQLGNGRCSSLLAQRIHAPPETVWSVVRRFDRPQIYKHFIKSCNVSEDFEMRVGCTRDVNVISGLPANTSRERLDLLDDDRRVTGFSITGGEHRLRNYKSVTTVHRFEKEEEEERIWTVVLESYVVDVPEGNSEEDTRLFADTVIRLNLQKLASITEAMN
`S59A` has an ABA EC50 of 4.23 µM.
For `N149K`, the ABA EC50 was 197 µM.
With `G102V` the ABA EC50 was 206 µM.
`E128C` gave an ABA EC50 of 2.05 µM.
`Q2E` has an ABA EC50 of 0.877 µM.
With `C25E` the ABA EC50 was 298 µM.
For `E147L`, the ABA EC50 was 3.32 µM.
For `L166F`, the ABA EC50 was 88.7 µM.
For `N165S`, the ABA EC50 was 300 µM.
With `F15S` the ABA EC50 was 69.7 µM.
`E131T` gave an ABA EC50 of 3.33 µM.
With `S26R` the ABA EC50 was 17 µM.
The ABA EC50 of `I12K` is reported as 34.1 µM.
With `Q10D` the ABA EC50 was 1.75 µM.
`E129Y` has an ABA EC50 of 3.19 µM.
`N177G` gave an ABA EC50 of 0.901 µM.
`S80P` gave an ABA EC50 of 168 µM.
